Measured values from different studies.
Compare with care: the assays were run in different laboratories. Several values in a cell are separate wells, animals, samples, runs or records.
Organism: Staphylococcus aureus

| SMILES | test | system | conditions | MIC |
| --- | --- | --- | --- | --- |
| C[C@@H](O)[C@H]1C(=O)N2C(C(=O)O)=C(S[C@@H]3CN[C@H](C(=O)N(C)C)C3)[C@H](C)[C@H]12 | broth microdilution | multidrug-resistant | – | 6.25 µM |
| CC(C)C[C@@H]1NC(=O)[C@H](C)NC(=O)[C@H](NC(=O)[C@H](CO)NC(=O)[C@@H](CCCCN)NC(=O)[C@@H](C)NC(=O)[C@@H](N)Cc2ccccc2)[C@H](C(N)=O)OC(=O)[C@H](CC(C)C)NC1=O | – | MRSA ATCC 700698 | TFA salt | 32 µg/mL |
| CN[C@H](CC(C)C)C(=O)N[C@H]1C(=O)N[C@@H](CC(N)=O)C(=O)N[C@H]2C(=O)N[C@H]3C(=O)N[C@H](C(=O)N[C@H](C(=O)O)c4cc(O)cc(O)c4-c4cc3ccc4O)[C@H](O)c3ccc(c(Cl)c3)Oc3cc2cc(c3O[C@@H]2O[C@H](CO)[C@@H](O)[C@H](O)[C@H]2O[C@H]2C[C@](C)(NCc3ccc(C(=O)OCCCCCCN(Cc4ccccn4)Cc4ccccn4)cc3)[C@H](O)[C@H](C)O2)Oc2ccc(cc2Cl)[C@H]1O | microbial growth, broth dilution | ATCC33591 MRSA | drug-resistant strain | 0.8 µM |
| CC(CCCOC(=O)CCC[N+](C)(C)C)C1CCC2C3CCC4CC(OC(=O)CCC[N+](C)(C)C)CCC4(C)C3CCC12C (centres unmarked) | microbial growth | ATCCBAA44 MRSA | drug-resistant strain | 9.7 µg/mL |
| CC[C@H](C)[C@H](NC(=O)[C@H](CCN)NC(=O)CCCCCCCCCCCNC(=O)CCCCCOC(=O)c1cn(C2CC2)c2cc(N3CCNCC3)c(F)cc2c1=O)C(=O)N[C@@H](CCN)C(=O)N[C@H](Cc1ccccc1)C(=O)N[C@@H](CC(C)C)C(=O)N[C@@H](CCN)C(=O)N[C@@H](C(=O)N[C@@H](CC(C)C)C(=O)N[C@@H](CO)C(N)=O)C(C)C | – | – | 24 h, 37 °C | 6.25 µM and 3.12 µM |
| COc1ccc2c3c(oc2c1CC=C(C)C)-c1cc(CC=C(C)C)c(O)cc1OC3 | – | – | – | inactive |
| O=C(O)c1ccc(-n2cc(/C=N/Nc3cccc(Cl)c3F)c(-c3ccc4ccccc4c3)n2)cc1 | microbial growth | ATCC33591 | drug-resistant strain | 12.5 µg/mL |
| CCCCCCCCCCCCCC(=O)N[C@H](CCN)C(=O)N[C@H](C(=O)N[C@H]1CCNC(=O)[C@H](CC(=O)O)NC(=O)[C@H](C(C)C)NC(=O)[C@@H](Cc2ccc(O)cc2)NC(=O)[C@H](CCN)NC(=O)[C@H](CC(C)C)NC(=O)[C@@H](Cc2ccccc2)NC(=O)[C@H](CCN)NC(=O)[C@H](CC(C)C)NC1=O)[C@@H](C)O | broth microdilution | BNCC 186335 | – | 4 µg/mL |
| CC[C@H](C)[C@H](NC(=O)[C@@H](CCCNC(=N)N)NC(=O)[C@H](CCCNC(=N)N)NC(=O)[C@@H]1CCCN1C(=O)[C@H](Cc1c[nH]c2ccccc12)NC(=O)[C@H](CCCNC(=N)N)NC(=O)[C@@H]1CCCN1C(=O)[C@H](CCCNC(=N)N)NC(=O)[C@@H]1CCCN1C(=O)[C@H](CC(C)C)NC(=O)[C@H](Cc1ccc(O)cc1)NC(=O)[C@@H]1CCCN1C(=O)[C@@H]1CCCN1C(=O)[C@H](CCCCN)NC(=O)[C@H](CC(=O)O)NC(=O)[C@@H](N)C(C)C)C(=O)N[C@@H](Cc1ccc(O)cc1)C(=O)N[C@@H](CC(N)=O)C(=O)N[C@H](CCCNC(=N)N)C(N)=O | broth microdilution | DSM 6247 | 18 h | 64 µg/mL |
| CC(C)S[C@H]1[C@H](O)[C@@H](N)[C@@H](O[C@H]2[C@H](O[C@@H]3O[C@H](CO)[C@@H](O[C@H]4O[C@@H](CN)[C@@H](O)[C@H](O)[C@H]4N)[C@H]3O)[C@@H](O)[C@H](N)C[C@@H]2N)O[C@@H]1CO | – | methicillin-resistant, AAC(6') ANT(4',4'') APH(3') | – | 2 to 4 µg/mL |
| CC[C@H](C)[C@H](NC(=O)[C@H](NC(=O)[C@@H](CCC(N)=O)NC(=O)[C@@H](N)COC(=O)[C@@H](NC(=O)[C@@H](Cc1ccccc1)NC)[C@@H](C)CC)[C@@H](C)CC)C(=O)N[C@@H](CO)C(=O)N[C@H]1C(=O)N[C@@H](C)C(=O)N[C@@H](C2CCCCC2)C(=O)N[C@@H]([C@@H](C)CC)C(=O)O[C@H]1C | broth microdilution | ATCC 29213, MSSA, Mueller-Hinton broth | 16 h, 37 °C | 0.25 µg/mL |
| CC[C@H](C)[C@H](N)C1=N[C@H](C(=O)N[C@@H](CC(C)C)C(=O)N[C@H](CCC(=O)O)C(=O)N[C@H](C(=O)N[C@H]2CCCCNC(=O)[C@H](CC(N)=O)NC(=O)[C@@H](CC(=O)O)NC(=O)[C@H](Cc3c[nH]cn3)NC(=O)[C@@H](CC(C)C)NC(=O)[C@H]([C@@H](C)CC)NC(=O)[C@@H](CCCN)NC2=O)[C@@H](C)CC)CS1 | broth microdilution | ATCC 29213, LB medium | 18 h, 37 °C, together with: ZnSO4 0.3 mM | 4 µg/mL |
| CCCCCCCCCCCCCCCC(=O)N[C@@H](Cc1c[nH]cn1)C(=O)N[C@@H](Cc1ccccc1)C(=O)N[C@@H](CCCNC(=N)N)C(=O)N[C@@H](Cc1c[nH]c2ccccc12)C(=O)NCC(=O)N[C@@H](CCCCN)C(=O)N1CCC[C@H]1C(=O)N[C@H](C(N)=O)C(C)C | broth microdilution | MSSA ATCC 29213 | Mueller-Hinton broth | > 45.5 µM |
| Oc1ccccc1C1Nc2ccccc2C2=[O+][Cu-2]3([Cl])[O]c4ccccc4C=[N+]3N21 (centres unmarked) | broth microdilution | MRSA clinical isolate SA 630 | 24 h, 37 °C | 8 µg/mL |
| CN[C@@H]1[C@H](O)[C@H](NC)[C@H]2O[C@]3(O)[C@H](O[C@@H]2[C@H]1O)O[C@H](C)C[C@@]3(O)CNCc1ccc(OC(F)(F)F)cc1 | – | MSSA ATCC 29213 | – | 100 µg/mL |
| CC(C)C[C@@H]1NC(=O)[C@H](C)NC(=O)[C@@H]2NC(=O)[C@H](CO)NC(=O)[C@@H](CCCCN)NC(=O)[C@H](NC(=O)[C@@H](N)Cc3ccccc3)CCCCCCCC[C@H](NC1=O)C(=O)O[C@H]2C | – | MRSA ATCC 700698 | TFA salt | 16 µg/mL |
| CC[C@@H]1NC(=O)[C@@H]([C@@H](C)O)NC(=O)CNC(=O)[C@H](CC(=O)O)NC(=O)CNC(=O)[C@H](CC(=O)O)NC(=O)CNC(=O)[C@H]2CCCCN2C(=O)[C@@H](NC(=O)[C@H](CC(=O)O)NC(=O)/C=C/CCCCCCCCCC(C)C)CNC(=O)[C@@H]2CCCN2C1=O | – | MRSA USA300 | together with: Ca2+ 1 mM | 32 µg/mL |
| CC(=O)N[C@@H](CCCNC(=N)N)C(=O)N[C@@H](Cc1c[nH]c2ccccc12)C(=O)N[C@@H](CCCNC(=N)N)C(=O)N[C@@H](Cc1c[nH]c2ccccc12)C(=O)N[C@@H](Cc1c[nH]c2ccccc12)C(=O)N[C@@H](CCCCN)C(=O)N1CCC[C@H]1C(=O)N[C@H](C(N)=O)C(C)C | – | MSSA ATCC 29213, Mueller-Hinton broth | overnight, 37 °C | > 90.8 µM |
| CCn1cc(C(=O)NCCCCCC(=O)N[C@@H](CCCNC(=N)N)C(=O)N[C@@H](CCCNC(=N)N)C(=O)N[C@@H](Cc2c[nH]c3ccccc23)C(=O)N[C@@H](CCC(N)=O)C(=O)N[C@@H](Cc2c[nH]c3ccccc23)C(=O)N[C@@H](CCCNC(=N)N)C(N)=O)c(=O)c2cc3c(cc21)OCO3 | broth microdilution | ATCC 25923 | 24 h, 37 °C | 37 µM and 39 µM |
| COc1cccc(C2Nc3ccccc3C3=[O+][Cu-2]4([Cl])[O]c5c(cccc5OC)C=[N+]4N32)c1O (centres unmarked) | broth microdilution | MRSA clinical isolate SA 630 | 24 h, 37 °C | 16 µg/mL |
| COc1ccc2ccc3c(c2c1)C=[N+]1C2CCCCC2[N+]2=Cc4ccccc4[O][Au-]21[O]3.F[P-](F)(F)(F)(F)F (centres unmarked) | bacterial growth, broth microdilution | vancomycin-intermediate | 24 h | 20 µM |
| CC[C@@H](C)[C@@H](NC(=O)[C@@H](CCCCN)NC(=O)[C@H]1CCCN1C(=O)[C@H](NC(=O)[C@@H](CC(C)C)NC(=O)[C@@H](CCCCN)NC(=O)[C@@H](CC(C)C)NC(=O)[C@H](NC(=O)[C@@H](CO)NC(=O)CNC(=O)[C@@H](Cc1ccccc1)NC(=O)[C@H](N)Cc1ccccc1)C(C)C)[C@H](C)CC)C(=O)N[C@H](CC(C)C)C(N)=O | broth microdilution | USA300 MRSA | – | 3.12 µM |
| CN(C)CCCNC(=O)[C@@H]1NC(=O)[C@@H]2Cc3ccc(cc3)Oc3cc4cc(c3O)-c3ccc5c(c[nH]c5c3)C[C@@H](NC(=O)C(NC(=O)CCCCCN)c3ccc(O)cc3)C(=O)N[C@H](c3ccc(O)cc3)C(=O)N[C@H]4C(=O)N[C@@H](C(=O)N2C)c2ccc(cc2)Oc2cc1ccc2O (some centres unmarked) | – | ATCC 33591 MRSA, Mueller-Hinton broth | – | 8 to 16 µg/mL |
| CCCN1CCNC1=[S+][Ag-3]([O][N+](=O)[O-])([P+](c1ccccc1)(c1ccccc1)c1ccccc1)[P+](c1ccccc1)(c1ccccc1)c1ccccc1 | agar dilution | methicillin-resistant | 24 h, 37 °C | 50 µg/mL |
| CCN(CC)CCCN1/C(=C/c2cc[n+](C)c3ccccc23)Sc2ccccc21 | microbial growth, broth dilution | ATCC29213 | – | 2 µg/mL |
| CCCCCCSCC1OC(OC2C(N)CC(N)C(OC3OC(CN)C(O)CC3N)C2O)C(O)C(N)C1O (centres unmarked) | – | NorA | – | > 150 µg/mL |
| Cc1cc(=O)nc(NC(=O)NCCCCCCNC(=O)NCCCCCCNC(=O)OCCOCCOCCOCCOCCOCCOCC(=O)N[C@@H](CC(C)C)C(=O)N[C@@H](CCCCN)C(=O)N[C@@H](CC(C)C)C(=O)N[C@@H](CC(C)C)C(=O)N[C@@H](CCCCN)C(=O)N[C@@H](CCCCN)C(=O)N[C@@H](CC(C)C)C(=O)N[C@@H](CC(C)C)C(=O)N[C@@H](CCCCN)C(=O)N[C@@H](CCCCN)C(=O)N[C@@H](CC(C)C)C(=O)N[C@@H](CC(C)C)C(=O)N[C@@H](CCCCN)C(=O)N[C@@H](CC(C)C)C(=O)N[C@@H](CC(C)C)C(N)=O)[nH]1 | – | MRSA AMC 201, RPMI medium | 24 h, 37 °C | 7.5 µM |
| CCCCc1ccc(N2C(=O)/C(=N\NC(=N)N)c3cc([N+](=O)[O-])ccc32)cc1 | broth microdilution | BAA41 MRSA | 18 h, 37 °C | > 192 µg/mL |
| CC[C@H](C)[C@@H]1NC(=O)[C@@H](CN)NC(=O)CNC(=O)[C@H](CC(=O)O)NC(=O)CNC(=O)[C@H](CC(=O)O)NC(=O)[C@H](CC(=O)O)NC(=O)[C@H]2CCCCN2C(=O)[C@@H](NC(=O)[C@H](CC(=O)O)NC(=O)/C=C/CCCCCCCCCC(C)C)CNC(=O)[C@@H]2CCCN2C1=O | – | MRSA USA300 | 16 h, 37 °C, together with: Ca2+ 10 mM | 8 µg/mL |

For quick reference, copied from above:
| SMILES | test | system | conditions | MIC |
| --- | --- | --- | --- | --- |
| Oc1ccccc1C1Nc2ccccc2C2=[O+][Cu-2]3([Cl])[O]c4ccccc4C=[N+]3N21 (centres unmarked) | broth microdilution | MRSA clinical isolate SA 630 | 24 h, 37 °C | 8 µg/mL |
| CN[C@@H]1[C@H](O)[C@H](NC)[C@H]2O[C@]3(O)[C@H](O[C@@H]2[C@H]1O)O[C@H](C)C[C@@]3(O)CNCc1ccc(OC(F)(F)F)cc1 | – | MSSA ATCC 29213 | – | 100 µg/mL |
| CC(C)C[C@@H]1NC(=O)[C@H](C)NC(=O)[C@@H]2NC(=O)[C@H](CO)NC(=O)[C@@H](CCCCN)NC(=O)[C@H](NC(=O)[C@@H](N)Cc3ccccc3)CCCCCCCC[C@H](NC1=O)C(=O)O[C@H]2C | – | MRSA ATCC 700698 | TFA salt | 16 µg/mL |
